# Experimental data from different studies.
# Every numbered part comes from another study and shows a few of its results, in no order.
# UniProt Q15418, sequence (whole entry, looked up): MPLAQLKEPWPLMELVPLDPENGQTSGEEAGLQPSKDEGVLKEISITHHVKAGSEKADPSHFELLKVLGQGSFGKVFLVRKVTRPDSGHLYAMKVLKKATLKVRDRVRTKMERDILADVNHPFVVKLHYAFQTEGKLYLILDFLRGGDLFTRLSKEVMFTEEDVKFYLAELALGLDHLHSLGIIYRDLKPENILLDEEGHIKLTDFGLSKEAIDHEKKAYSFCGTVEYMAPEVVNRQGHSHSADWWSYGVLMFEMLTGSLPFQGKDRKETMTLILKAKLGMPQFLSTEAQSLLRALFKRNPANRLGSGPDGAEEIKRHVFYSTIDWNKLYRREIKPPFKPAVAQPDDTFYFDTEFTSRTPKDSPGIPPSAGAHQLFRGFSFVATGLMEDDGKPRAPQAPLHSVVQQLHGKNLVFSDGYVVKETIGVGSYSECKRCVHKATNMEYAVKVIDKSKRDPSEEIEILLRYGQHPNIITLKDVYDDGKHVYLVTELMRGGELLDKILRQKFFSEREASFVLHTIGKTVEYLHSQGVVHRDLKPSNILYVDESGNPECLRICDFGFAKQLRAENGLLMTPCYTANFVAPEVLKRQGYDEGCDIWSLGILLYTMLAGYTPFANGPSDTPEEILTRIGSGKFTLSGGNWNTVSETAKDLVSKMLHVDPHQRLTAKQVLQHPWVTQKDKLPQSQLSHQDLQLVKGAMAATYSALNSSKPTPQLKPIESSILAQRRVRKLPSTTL

# Study 1 — technique: RNAcompete; form: RNA; matrix: in vitro; concentration: 20 nM; notes: 7-mer, probes averaged, single round; relative to: mean of 7-mers; direction: higher = stronger binding
# Target: PABPC1L2, full length, GST fusion (mouse, UniProt A0ABA7IW68)
# Residues (chain): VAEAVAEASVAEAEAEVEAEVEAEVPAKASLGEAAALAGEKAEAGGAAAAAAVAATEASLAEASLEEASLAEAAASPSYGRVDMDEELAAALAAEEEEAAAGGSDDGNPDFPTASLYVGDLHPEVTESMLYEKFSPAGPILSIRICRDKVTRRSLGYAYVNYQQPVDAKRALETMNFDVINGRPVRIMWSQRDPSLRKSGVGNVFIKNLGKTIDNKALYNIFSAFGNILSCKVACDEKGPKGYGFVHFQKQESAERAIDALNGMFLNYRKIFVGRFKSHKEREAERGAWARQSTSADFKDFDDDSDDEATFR
Sequence,7-mer Z-score
AGCGGGG,0.361
GGCCUGC,-0.0844
CUGUCUU,-0.418
UUACAUC,-0.219
ACGAUGA,-0.0409
ACCUUCC,-0.394
CUCUUGC,-0.489
AAUCGUU,-0.224

# Study 2 — technique: Spec-seq; form: double-stranded DNA, one strand shown; matrix: in vitro; concentration: not given; notes: whole probe, mean of replicates; relative to: not given; direction: lower = stronger binding; all sequences stand within: GAGTCGTCTCGTCAGCAC … CCGTAGAGCACTCAGGTC
# Target: POU domain, class 5, transcription factor 1, POU domain (Pou5f1, Mus musculus, UniProt P20263, residues 131-289)
# UniProt P20263, sequence (131-289, looked up): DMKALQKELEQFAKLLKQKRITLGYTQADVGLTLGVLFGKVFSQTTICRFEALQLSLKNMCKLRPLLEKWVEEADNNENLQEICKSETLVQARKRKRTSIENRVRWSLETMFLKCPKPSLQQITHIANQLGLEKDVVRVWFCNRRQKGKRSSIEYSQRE
Sequence,relative binding energy
CGAGTAAT,0.911 ln ratio
ATTCACAT,-0.0531 ln ratio
TATATAAT,0.245 ln ratio
ATCATTAT,-0.0671 ln ratio
ATGCGCAA,0.187 ln ratio
ATGCAGTA,0.242 ln ratio
ATGAACAT,0.37 ln ratio
ATTAGAAT,-0.867 ln ratio

# Study 3 — technique: protein-binding microarray; form: double-stranded DNA, one strand shown; matrix: in vitro; concentration: 250 nM; notes: 60-bp whole probe; added: salmon DNA 0.4 mg/ml; relative to: random background probes; direction: higher = stronger binding; all sequences stand within: GCCTAGCAC … GTCTTGATTCGCTTGACGCTGCTG
# Target: Interferon regulatory factor 5, full length, phosphomimetic (IRF5, Homo sapiens, UniProt Q13568-2, residues 1-514, K96S/S451D/S453D/S456D/S462D)
Sequence,log fluorescence [z-score]
TCATTACTAAAATTTCATACTGTGCTA,1.18
GACGGTTTCGACACTAGGGACGTGCTA,4.38
GACGATCTCAGTTTCGCGACGTGCTAG,1.24
GACGATTTCGGGACTGGAGAAGTGCTA,2.12
GACGGTATCGGGTATCGGGAGGTGCTA,3.53
GACGATATCAGTCTCGAAACGTGCTAG,2.13
GACGATTTCAGTATCCAGACGTGCTAG,1.38
AGTTCTCTGAAGACTCTCTTGGTGCTA,-0.000561

# Mixed results
Structure (SMILES),target,effect on,technique,concentration,endpoint,result
Cc1nc(N2CC[C@@H](O)C2)ncc1-c1cc(C(F)(F)F)cc2[nH]ncc12,"Ribosomal protein S6 kinase alpha-1, N-terminal kinase domain (RPS6KA1, Homo sapiens, UniProt Q15418)",binding,competition with immobilised ligand,1 µM,remaining binding,100%
